Measured values pooled from the literature.
Every numbered part comes from another study and shows a few of its results, in no order.
UniProt P00519, sequence (whole entry, unmodified, looked up): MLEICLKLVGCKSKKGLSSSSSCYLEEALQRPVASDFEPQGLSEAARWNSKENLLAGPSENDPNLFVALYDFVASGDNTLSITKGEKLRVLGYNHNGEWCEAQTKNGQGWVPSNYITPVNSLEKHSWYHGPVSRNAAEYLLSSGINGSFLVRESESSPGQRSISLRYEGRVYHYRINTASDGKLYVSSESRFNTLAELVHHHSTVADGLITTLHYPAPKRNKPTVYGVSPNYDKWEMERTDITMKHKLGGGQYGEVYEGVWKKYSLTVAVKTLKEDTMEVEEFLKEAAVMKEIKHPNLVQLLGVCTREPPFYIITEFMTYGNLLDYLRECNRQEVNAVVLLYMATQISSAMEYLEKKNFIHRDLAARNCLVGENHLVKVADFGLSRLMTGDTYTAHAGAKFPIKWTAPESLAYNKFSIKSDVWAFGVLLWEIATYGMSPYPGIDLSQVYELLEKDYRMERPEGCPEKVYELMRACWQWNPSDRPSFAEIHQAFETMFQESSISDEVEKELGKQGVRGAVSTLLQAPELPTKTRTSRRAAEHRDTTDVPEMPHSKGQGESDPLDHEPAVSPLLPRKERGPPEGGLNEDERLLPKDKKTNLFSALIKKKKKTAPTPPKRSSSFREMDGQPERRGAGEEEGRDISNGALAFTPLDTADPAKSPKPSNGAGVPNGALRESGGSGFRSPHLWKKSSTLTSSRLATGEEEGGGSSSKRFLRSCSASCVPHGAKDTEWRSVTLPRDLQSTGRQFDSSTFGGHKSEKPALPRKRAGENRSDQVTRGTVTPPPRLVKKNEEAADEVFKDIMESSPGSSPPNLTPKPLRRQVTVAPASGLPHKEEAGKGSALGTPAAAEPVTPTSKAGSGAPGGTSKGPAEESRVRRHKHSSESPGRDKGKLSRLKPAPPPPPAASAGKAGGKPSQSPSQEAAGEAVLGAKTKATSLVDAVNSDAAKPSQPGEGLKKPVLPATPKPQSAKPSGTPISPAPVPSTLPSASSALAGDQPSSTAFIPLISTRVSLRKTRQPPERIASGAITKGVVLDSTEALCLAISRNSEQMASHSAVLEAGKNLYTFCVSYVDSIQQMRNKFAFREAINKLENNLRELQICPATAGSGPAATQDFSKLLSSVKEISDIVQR
UniProt Q13523, sequence (whole entry, looked up): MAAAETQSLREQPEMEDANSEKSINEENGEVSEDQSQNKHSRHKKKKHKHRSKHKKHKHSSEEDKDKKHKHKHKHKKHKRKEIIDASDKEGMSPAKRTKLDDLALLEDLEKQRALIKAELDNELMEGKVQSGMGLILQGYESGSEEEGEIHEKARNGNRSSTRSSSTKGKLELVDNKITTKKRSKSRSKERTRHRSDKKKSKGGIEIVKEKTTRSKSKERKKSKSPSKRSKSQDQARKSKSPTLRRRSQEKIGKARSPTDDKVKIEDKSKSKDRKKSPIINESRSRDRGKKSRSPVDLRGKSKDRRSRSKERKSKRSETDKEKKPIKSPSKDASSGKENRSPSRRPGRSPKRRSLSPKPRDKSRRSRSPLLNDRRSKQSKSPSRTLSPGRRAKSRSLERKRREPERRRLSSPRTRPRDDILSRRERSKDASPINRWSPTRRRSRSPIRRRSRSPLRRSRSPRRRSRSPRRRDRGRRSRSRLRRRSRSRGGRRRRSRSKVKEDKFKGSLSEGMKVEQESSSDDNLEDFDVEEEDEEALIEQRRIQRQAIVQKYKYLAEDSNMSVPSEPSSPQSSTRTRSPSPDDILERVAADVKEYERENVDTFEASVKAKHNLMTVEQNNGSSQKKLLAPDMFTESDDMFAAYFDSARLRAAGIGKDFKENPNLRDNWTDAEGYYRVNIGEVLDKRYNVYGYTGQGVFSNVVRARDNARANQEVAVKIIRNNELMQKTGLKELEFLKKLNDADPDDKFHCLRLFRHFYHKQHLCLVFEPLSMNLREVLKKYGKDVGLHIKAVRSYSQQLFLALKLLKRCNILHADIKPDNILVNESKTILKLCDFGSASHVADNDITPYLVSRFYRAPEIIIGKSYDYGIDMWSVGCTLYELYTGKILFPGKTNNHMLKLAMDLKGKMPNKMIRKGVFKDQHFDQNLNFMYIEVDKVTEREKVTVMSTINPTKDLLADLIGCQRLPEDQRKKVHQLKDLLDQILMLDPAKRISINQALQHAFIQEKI
UniProt Q99683, sequence (whole entry, looked up): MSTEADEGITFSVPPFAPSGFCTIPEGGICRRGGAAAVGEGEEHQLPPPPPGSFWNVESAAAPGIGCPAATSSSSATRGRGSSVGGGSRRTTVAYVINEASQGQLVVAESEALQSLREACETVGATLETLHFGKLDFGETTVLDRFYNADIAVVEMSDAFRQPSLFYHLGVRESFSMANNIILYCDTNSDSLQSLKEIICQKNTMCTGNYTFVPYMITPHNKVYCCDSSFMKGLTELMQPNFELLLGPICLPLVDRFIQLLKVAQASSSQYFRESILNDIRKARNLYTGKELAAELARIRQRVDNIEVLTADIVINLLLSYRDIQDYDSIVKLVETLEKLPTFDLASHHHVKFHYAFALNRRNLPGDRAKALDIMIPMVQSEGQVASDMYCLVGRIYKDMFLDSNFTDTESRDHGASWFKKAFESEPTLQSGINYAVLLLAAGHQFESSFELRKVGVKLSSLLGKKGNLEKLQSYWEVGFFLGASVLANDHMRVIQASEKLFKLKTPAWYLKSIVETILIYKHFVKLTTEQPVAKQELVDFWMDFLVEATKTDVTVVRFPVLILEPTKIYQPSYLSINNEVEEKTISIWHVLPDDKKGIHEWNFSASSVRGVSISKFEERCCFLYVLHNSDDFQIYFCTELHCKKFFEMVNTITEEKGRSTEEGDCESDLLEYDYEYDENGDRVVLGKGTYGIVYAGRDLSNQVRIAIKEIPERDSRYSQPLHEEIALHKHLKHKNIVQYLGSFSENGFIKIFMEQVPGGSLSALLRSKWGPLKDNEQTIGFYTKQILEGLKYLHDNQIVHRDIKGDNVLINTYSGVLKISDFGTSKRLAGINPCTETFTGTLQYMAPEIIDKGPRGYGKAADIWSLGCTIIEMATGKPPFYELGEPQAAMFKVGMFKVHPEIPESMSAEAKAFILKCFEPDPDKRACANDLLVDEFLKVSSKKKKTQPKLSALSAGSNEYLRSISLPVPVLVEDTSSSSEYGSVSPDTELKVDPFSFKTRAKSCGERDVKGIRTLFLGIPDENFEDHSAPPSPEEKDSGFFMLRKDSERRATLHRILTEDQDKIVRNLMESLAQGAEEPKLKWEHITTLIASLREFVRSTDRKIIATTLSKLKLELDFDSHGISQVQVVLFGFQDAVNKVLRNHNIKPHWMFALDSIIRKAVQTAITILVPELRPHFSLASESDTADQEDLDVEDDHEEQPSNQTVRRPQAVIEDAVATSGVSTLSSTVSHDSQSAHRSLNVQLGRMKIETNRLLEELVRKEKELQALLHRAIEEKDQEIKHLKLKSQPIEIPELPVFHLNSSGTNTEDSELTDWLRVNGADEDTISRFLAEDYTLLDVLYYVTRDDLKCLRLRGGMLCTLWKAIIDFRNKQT
UniProt Q9H4B4, sequence (whole entry, looked up): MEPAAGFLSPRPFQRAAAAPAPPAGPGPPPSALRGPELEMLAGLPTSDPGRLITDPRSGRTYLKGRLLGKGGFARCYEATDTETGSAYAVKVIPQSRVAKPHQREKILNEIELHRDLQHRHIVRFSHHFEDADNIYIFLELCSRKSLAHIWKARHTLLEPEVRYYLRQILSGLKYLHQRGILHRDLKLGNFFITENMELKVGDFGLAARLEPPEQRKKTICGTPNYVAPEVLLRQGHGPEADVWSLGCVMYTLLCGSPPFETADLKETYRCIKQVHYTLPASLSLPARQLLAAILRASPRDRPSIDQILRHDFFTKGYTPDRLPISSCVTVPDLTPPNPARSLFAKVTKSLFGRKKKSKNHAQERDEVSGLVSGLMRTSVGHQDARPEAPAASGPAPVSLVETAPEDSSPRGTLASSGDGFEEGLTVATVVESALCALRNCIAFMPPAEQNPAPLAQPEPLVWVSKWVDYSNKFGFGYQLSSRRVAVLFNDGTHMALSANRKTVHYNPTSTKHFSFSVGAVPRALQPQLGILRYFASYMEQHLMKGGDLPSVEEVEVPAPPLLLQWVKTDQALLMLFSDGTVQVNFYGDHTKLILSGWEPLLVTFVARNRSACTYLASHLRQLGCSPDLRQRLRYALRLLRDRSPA
UniProt Q9Y6E0, sequence (whole entry, looked up): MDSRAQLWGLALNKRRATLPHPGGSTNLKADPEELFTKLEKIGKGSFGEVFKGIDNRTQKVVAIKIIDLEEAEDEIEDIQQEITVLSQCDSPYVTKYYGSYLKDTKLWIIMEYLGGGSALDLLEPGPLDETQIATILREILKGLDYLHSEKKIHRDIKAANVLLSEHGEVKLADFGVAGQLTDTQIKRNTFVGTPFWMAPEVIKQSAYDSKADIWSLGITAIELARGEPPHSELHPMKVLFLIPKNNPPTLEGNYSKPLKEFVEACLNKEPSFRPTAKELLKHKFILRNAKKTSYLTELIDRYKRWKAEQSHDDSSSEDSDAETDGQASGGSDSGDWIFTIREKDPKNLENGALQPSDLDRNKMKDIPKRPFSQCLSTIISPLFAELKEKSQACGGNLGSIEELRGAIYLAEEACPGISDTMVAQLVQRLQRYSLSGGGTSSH

Set 1 — cell line: Huh-7; tested at: 10 µM; time: 24 h
Structure (SMILES) | viability
C[C@]12CCC(=O)C=C1C=C[C@@H]1[C@@H]2CC[C@@]2(C)[C@H]1CC[C@@]21CCC(=O)O1 | 91.7%
CC1COc2c(N3CCN(C)CC3)c(F)cc3c(=O)c(C(=O)O)cn1c23 (stereo not drawn) | 101%
O=C(O)P(=O)(O)O | 99.1%
CC(C)c1nc(N(C)S(C)(=O)=O)nc(-c2ccc(F)cc2)c1/C=C/[C@@H](O)C[C@@H](O)CC(=O)O | 95.5%
CC1Cc2ccccc2N1NC(=O)c1ccc(Cl)c(S(N)(=O)=O)c1 (stereo not drawn) | 103%
OCc1cccnc1 | 102%
CN(C)[C@@H]1C(O)=C(C(=O)NCN2CCCC2)C(=O)[C@@]2(O)C(O)=C3C(=O)c4c(O)cccc4[C@@](C)(O)[C@H]3C[C@@H]12 | 98%

Set 2 — effect on: enzyme activity; mode: inhibitor; tested at: 0.5 µM; reference: control
Target: MAP kinase-interacting serine/threonine-protein kinase 2 (MKNK2, Homo sapiens, UniProt Q9HBH9)
UniProt Q9HBH9, sequence (whole entry, looked up): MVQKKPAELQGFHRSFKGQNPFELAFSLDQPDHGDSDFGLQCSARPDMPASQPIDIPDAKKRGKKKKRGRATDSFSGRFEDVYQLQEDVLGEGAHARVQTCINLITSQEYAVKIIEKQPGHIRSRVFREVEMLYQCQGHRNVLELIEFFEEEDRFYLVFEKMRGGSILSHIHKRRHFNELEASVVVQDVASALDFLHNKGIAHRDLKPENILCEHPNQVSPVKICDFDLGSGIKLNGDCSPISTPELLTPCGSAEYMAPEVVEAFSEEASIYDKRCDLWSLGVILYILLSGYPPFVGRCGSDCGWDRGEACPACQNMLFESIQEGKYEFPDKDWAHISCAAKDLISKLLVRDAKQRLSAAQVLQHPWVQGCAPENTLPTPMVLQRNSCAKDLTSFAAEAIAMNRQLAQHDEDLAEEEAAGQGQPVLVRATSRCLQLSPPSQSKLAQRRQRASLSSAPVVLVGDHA
Structure (SMILES) | remaining activity [%]
c1ccc(-c2cnc(Nc3ccc(OCCN4CCCC4)cc3)s2)cc1 | 18.6
Ic1cccc(CSc2nnc(-c3ccncc3)o2)c1 | 91.5
CCN(CC)CCNC(=O)c1c(C)[nH]c(/C=C2\C(=O)Nc3ccc(Cl)cc32)c1C | 88.8
CCN(CC)C(=O)c1ccc(Nc2nc(OCC3CCCCC3)c3[nH]cnc3n2)cc1 | 89.3
COc1cc2ncnc(Nc3ccc(O)c(Br)c3)c2cc1OC | 18
C[C@@H]1CCN(C(=O)CC#N)C[C@@H]1N(C)c1ncnc2[nH]ccc12 | 97.4
O=C(Nc1cccc(Nc2nccc(Nc3cccc(C(F)(F)F)c3)n2)c1)C1CC1 | 91.2
O=C1C(Cl)=C(N2C(=O)CCC2=O)C(=O)c2ccccc21 | 84.5
N#Cc1c(NC(=O)c2cccc3ccccc23)sc2c1CCCC2 | 106
O=C(NC(NC(=S)Nc1ccc(F)c([N+](=O)[O-])c1)C(Cl)(Cl)Cl)C(c1ccccc1)c1ccccc1 (stereo not drawn) | 135
Cc1nc2cc3nc(-c4cccs4)cnc3cc2n1C | 108
Nc1cccc(-c2cc3c(Oc4cccc(O)c4)ncnc3[nH]2)c1 | 67.5
Cn1nc2c3c(cccc31)C(=O)c1ccccc1-2 | 94.1
COc1cc2c(cc1OC)-c1[nH]nc(Nc3cccc(F)c3)c1C2 | 91.5
c1ccc(-c2[nH]ncc2-c2ccnc3ccccc23)nc1 | 81.9
O=c1cc(-c2cccc3c2Sc2ccccc2S3)oc(N2CCOCC2)c1 | 117
CN([C@@H](Cc1ccc(OS(=O)(=O)c2cccc3cnccc23)cc1)C(=O)N1CCN(c2ccccc2)CC1)S(=O)(=O)c1cccc2cnccc12 | 104
CCN(CC)CCNC(=O)c1c(C)[nH]c(/C=C2\C(=O)Nc3ccc(F)cc32)c1C | 99.3
CCOc1nc(NC(=O)Cc2cc(OC)ccc2OC)cc(N)c1C#N | 106
Cc1cn(-c2cc(NC(=O)c3ccc(C)c(Nc4nccc(-c5cccnc5)n4)c3)cc(C(F)(F)F)c2)cn1 | 103
COc1cc2ncnc(Nc3cccc(Cl)c3)c2cc1OC | 39.5
O=C1c2ccccc2-c2n[nH]c3cccc1c23 | 59.1
N#C/C(=C\c1ccc(O)c(O)c1)C(=O)NCc1ccccc1 | 87.9
CN(C)C[C@H]1CCn2c(c(C3=C(c4cn(C)c5ccccc45)C(=O)NC3=O)c3ccccc32)C1 | 85.8
Cc1cc2ncc(-c3ccccc3)nc2cc1C | 94.8

Set 3 — cell line: mouse MPNST tumor cells; method: high-content immunofluorescence imaging; item: nuclear SOX9; tested at: 10 µM; time: 12 h; notes: mean of 2 replicates; reference: DMSO control; direction: higher = more nuclear SOX9
SMILES | nuclear SOX9 intensity
Cn1cc(CCn2cnc(-c3cnn(C)c3)c2-c2ccc(C#N)cc2)cn1 | 102 % of DMSO
COc1cc2nccc(Oc3ccc(NC(=O)Nc4ccc(F)cc4F)c(F)c3)c2cc1OC | 195 % of DMSO
CC1(C)CCC(C)(C)c2cc(C3(c4ccc(C(=O)O)cc4)OCCO3)ccc21 | 99.4 % of DMSO
CC=CC(=O)N(CC)c1ccccc1C | 90.3 % of DMSO

Set 4 — tested at: 1 µM
SMILES: CN(C)C(=O)Cn1cc(-c2nc(C3(c4ccc(-c5cnc(N)nc5)cc4)CC3)no2)cn1
target | assay | remaining binding
PLK3 (Homo sapiens, UniProt Q9H4B4) | cell-free assay, competition with immobilised ligand | 89%
STK24 (Homo sapiens, UniProt Q9Y6E0) | cell-free assay, competition with immobilised ligand | 100%
PTK6 (Homo sapiens, UniProt Q13882) | cell-free assay, competition with immobilised ligand | 100%
TYRO3 (Homo sapiens, UniProt Q06418) | cell-free assay, competition with immobilised ligand | 83%
PI4KB (Homo sapiens, UniProt Q9UBF8) | cell-free assay, competition with immobilised ligand | 70%
MAP3K5 (Homo sapiens, UniProt Q99683) | cell-free assay, competition with immobilised ligand | 91%
PRPF4B (Homo sapiens, UniProt Q13523) | cell-free assay, competition with immobilised ligand | 87%
FLT4 (Homo sapiens, UniProt P35916) | cell-free assay, competition with immobilised ligand | 95%
MAPK4 (Homo sapiens, UniProt P31152) | cell-free assay, competition with immobilised ligand | 100%
PIM1 (Homo sapiens, UniProt P11309) | cell-free assay, competition with immobilised ligand | 100%
ALK (Homo sapiens, UniProt Q9UM73) | cell-free assay, competition with immobilised ligand | 77%
GRK2 (Homo sapiens, UniProt P25098) | cell-free assay, competition with immobilised ligand | 67%
PKMYT1 (Homo sapiens, UniProt Q99640) | cell-free assay, competition with immobilised ligand | 90%
SYK (Homo sapiens, UniProt P43405) | cell-free assay, competition with immobilised ligand | 77%
Tyrosine-protein kinase ABL1, phosphorylated (ABL1, Homo sapiens, UniProt P00519, F317I) | binding | 90%

A few entries again (set 1):
Structure (SMILES) | viability
C[C@]12CCC(=O)C=C1C=C[C@@H]1[C@@H]2CC[C@@]2(C)[C@H]1CC[C@@]21CCC(=O)O1 | 91.7%
CN(C)[C@@H]1C(O)=C(C(=O)NCN2CCCC2)C(=O)[C@@]2(O)C(O)=C3C(=O)c4c(O)cccc4[C@@](C)(O)[C@H]3C[C@@H]12 | 98%
CC1Cc2ccccc2N1NC(=O)c1ccc(Cl)c(S(N)(=O)=O)c1 (stereo not drawn) | 103%
CC1COc2c(N3CCN(C)CC3)c(F)cc3c(=O)c(C(=O)O)cn1c23 (stereo not drawn) | 101%
OCc1cccnc1 | 102%
O=C(O)P(=O)(O)O | 99.1%
CC(C)c1nc(N(C)S(C)(=O)=O)nc(-c2ccc(F)cc2)c1/C=C/[C@@H](O)C[C@@H](O)CC(=O)O | 95.5%
